Published values from different studies.

CC(C)Nc1ccnc(Nc2cccc(-c3cccnc3)c2)n1  blood chemistry (refers to: potassium; mouse, blood; intraperitoneal, 10 mg/kg): 7.32 mmol/L
O=C(Nc1ccccc1)C1CCN(C(=O)Oc2cccnc2)CC1  adverse event Agitation (healthy women; oral, 20 mg, 7 days): 7.1%
CCC[C@H]1CC[C@H](c2ccc(-c3ccc(F)cc3)cc2)CC1  median placental accumulation (rat, placenta; 5000 ng/mL in perfusate, high dose, mixture of 21 LCMs): 190 ng/g
CN1CC[C@@H](c2c(O)cc(O)c3c(=O)cc(-c4ccc(C(F)(F)F)cc4Cl)oc23)[C@@H]1CO  patients with adverse event (refers to: respiratory failure; AML; oral, 200 mg, grade 3 to 4, intermittent dosing): 0%
CC(=O)c1c(C)c2cnc(Nc3ccc(C4CCN(CCS(C)(=O)=O)CC4)cn3)nc2n(C2CCCC2)c1=O  patients with Hypertriglyceridemia (HR+/HER2- advanced breast cancer patients; oral, dose not given, grade 3/4,, total): 2.5%
Cc1cc(C)c(CNC(=O)c2cc(Cl)c3c(c2C)O[C@@](C)([C@H]2CC[C@H](N(C)C)CC2)O3)c(=O)[nH]1  incidence of tooth infection (relapsed/refractory NHL patients; dose not given, trial, safety set, all TEAEs grade 5): 0%
Brc1ccc(Oc2cc(Br)c(Br)cc2Br)c(Br)c1  dose fraction in milk fat (whole cow milk; 2000 nM nominal): 84.7%
CO[C@H]1C[C@@H]2CC[C@@H](C)[C@@](O)(O2)C(=O)C(=O)N2CCCC[C@H]2C(=O)O[C@H]([C@H](C)C[C@@H]2CC[C@@H](OC(=O)NCCOCCOCCOCCOCCOCCOCCOCCOCCC(=O)N3CCc4cc(Cn5nc(-c6ccc7oc(N)nc7c6)c6c(N)ncnc65)ccc4C3)[C@H](OC)C2)C[C@@H](O)[C@H](C)/C=C(\C)[C@@H](O)[C@@H](OC)C(=O)[C@H](C)C[C@H](C)/C=C/C=C/C=C/1C  TRAE incidence (phase 1 dose escalation, refers to: vomiting; advanced solid tumour patients; intravenous, 16 mg weekly, any grade): 25%
C[C@]1(CO)Cc2ncn(-c3ccc(C#N)c(Cl)c3)c2C(=O)O1  drug-related TEAEs (human; all doses, European multiple ascending dose): 15.6%
COc1cc2c(Oc3ccc4[nH]c(C)cc4c3F)ccnc2cc1OCC1(N)CC1  Leukopenia incidence (paediatric recurrent refractory sarcoma; 10 mg): 25%
CCc1ccc(CC/C=C/c2ccc3c(c2)C(=O)CC3)cc1  HDW (Sprague-Dawley rat, male; oral, 450 mg/kg/day, 14 days): 25.6 g/L

Repeated from above:
O=C(Nc1ccccc1)C1CCN(C(=O)Oc2cccnc2)CC1  adverse event Agitation (healthy women; oral, 20 mg, 7 days): 7.1%
CCC[C@H]1CC[C@H](c2ccc(-c3ccc(F)cc3)cc2)CC1  median placental accumulation (rat, placenta; 5000 ng/mL in perfusate, high dose, mixture of 21 LCMs): 190 ng/g
